Measurements collected from several papers.
Lines come from different studies, so protocols differ. Values joined by “and” are separate records of one study, mostly repeats; a detail may differ. ± gives the spread as reported.

Structure (SMILES)	cell line	test	system	setting	how to read	measurement	result
O=C(C[Se]C(=O)c1cc2ccccc2s1)Nc1cccc(C(F)(F)F)c1	NCI60 melanoma subpanel	cytotoxicity, inhibitor		five-dose		CC50	6.15 µM
CSCC[C@H](NC(=O)[C@@H](NC(=O)[C@H](CCC(N)=O)NC(=O)[C@H](CO)NC(=O)[C@@H](N)C(C)C)[C@@H](C)O)C(=O)N[C@@H](CCCNC(=N)N)C(=O)N[C@@H](CCC(N)=O)C(=O)N[C@H](C(=O)N[C@@H](C)C(=O)N[C@H](C(=O)N1CCC[C@H]1C(=O)N[C@@H](CC(C)C)C(=O)N[C@@H](CC(C)C)C(=O)N[C@@H](Cc1c[nH]c2ccccc12)C(=O)N[C@@H](Cc1ccccc1)C(=O)N[C@@H](Cc1c[nH]c2ccccc12)C(=O)N[C@H](C(=O)NCC(=O)N[C@@H](CO)C(=O)N[C@@H](CC(C)C)C(=O)NCCOCCOCCOCCOCCOCCOCCOCCOCCOCCOCCOCCOCCC(=O)N[C@@H](CS)C(N)=O)[C@@H](C)O)C(C)C)[C@@H](C)O	HCC461	phage binding			baseline: targeting over control phage	selectivity ratio	1.8 ± 0.64
CC[C@H](C)[C@H](NC(=O)[C@H](C)NC(=O)CNC(=O)[C@H](Cc1ccccc1)NC(=O)[C@H](CC(N)=O)NC(=O)[C@H](CC(N)=O)NC(=O)[C@H](CO[C@@H]1O[C@H](CO)[C@@H](O)[C@H](O)[C@H]1NC(C)=O)NC(=O)[C@H](CO)NC(=O)[C@H](Cc1c[nH]cn1)NC(=O)[C@@H](NC(=O)[C@H](CC(C)C)NC(=O)[C@H](Cc1ccccc1)NC(=O)[C@H](CC(N)=O)NC(=O)[C@H](C)NC(=O)[C@@H](N)CC(C)C)C(C)C)C(=O)N[C@@H](CC(C)C)C(N)=O	INS-1	MTT		1 equivalents to hIAPP, 24 h, added: hIAPP 1 µM		viability	66.5%
CC(C)C[C@H](NC(=O)[C@H](CC(=O)O)NC(=O)CNC(=O)[C@@H](N)CCCNC(=N)N)C(=O)N[C@@H](C)C(=O)N[C@H](C(=O)N[C@@H](CC(C)C)C(=O)N[C@@H](CCCNC(=N)N)C(=O)N[C@@H](CCC(N)=O)C(=O)N[C@@H](CC(C)C)C(=O)N[C@@H](C)C(=O)N[C@@H](CCC(N)=O)C(=O)N[C@@H](CCC(=O)O)C(=O)N[C@@H](CC(=O)O)C(=O)NCC(=O)N[C@H](C(=O)N[C@H](C(=O)NCC(=O)N[C@H](C(=O)N[C@@H](CCCNC(=N)N)C(=O)NCCOCCOCCOCCOCCOCCOCCOCCOCCOCCOCCOCCOCCC(=O)N[C@@H](CS)C(N)=O)C(C)C)C(C)C)C(C)C)[C@@H](C)O	H1299 lung large cell carcinoma	cell binding, phage binding, measured: output/input phage		10 min, 37 °C	baseline: control phage	selectivity ratio	4.7 ± 0.23
COc1ccc(NC(=O)c2ccc3[nH]c(-c4ccc(N(C)C)cc4)nc3c2)cn1	HCT116	IncuCyte		concentration not given, 44 (unit not given)		PI-positive cells	212 count and 228 count and 292 count
CC(C)[C@H](NC(=O)[C@H](CCCNC(=N)N)NC(=O)[C@@H]1CCCN1C(=O)[C@@H](NC(=O)[C@H](C)NC(=O)[C@H](Cc1ccc(O)cc1)NC(=O)[C@H](CCC(N)=O)NC(=O)[C@H](CCCCN)NC(=O)[C@H](CCCNC(=N)N)NC(=O)[C@@H]1CCCN1C(=O)[C@H](CCC(=O)O)NC(=O)[C@@H](NC(=O)[C@H](C)N)[C@@H](C)O)[C@@H](C)O)C(=O)N[C@@H](Cc1ccccc1)C(=O)N[C@@H](Cc1c[nH]c2ccccc12)C(=O)N[C@H](C(=O)N[C@@H](CC(=O)O)C(=O)N[C@@H](C)C(=O)N1CCC[C@H]1C(=O)NCC(=O)NCCOCCOCCOCCOCCOCCOCCOCCOCCOCCOCCOCCOCCC(=O)N[C@@H](CS)C(N)=O)[C@@H](C)O	SKOV3 ovarian cancer	cell binding, phage binding, measured: output/input phage		10 min, 37 °C	baseline: control phage	selectivity ratio	2.7 ± 1.1
NC(=S)N/N=C/c1ccc(OCc2ccccc2)cc1	IMR-32			300 µg/mL, 24 h	higher = more activity	catalase activity (OD450)	0.05 a.u.
CC(=O)Oc1ccccc1C(=O)[Se]CC(=O)Nc1cccc(C(F)(F)F)c1	NCI60 leukaemia subpanel	NCI60 five-dose screen				CC50	100 µM
COc1ccccc1-c1ccncc1C(=O)Nc1nnc(OCc2ccc(Cl)cc2)s1	RPE-1 TP53-/- BRCA1-/-			4 µM, average of 2 runs	baseline: untreated	colony survival	38.9%
CC(=O)NCSC[C@H](NC(=O)[C@@H]1CCCN1C(=O)[C@H](C)NC(=O)[C@@H](NC(=O)CNC(=O)[C@@H](NC(=O)[C@H](Cc1c[nH]c2ccccc12)NC(=O)[C@H](C)NC(=O)CNC(=O)[C@H](CO)NC(=O)[C@H](C)NC(=O)[C@@H]1CCCN1C(=O)[C@H](Cc1c[nH]c2ccccc12)NC(=O)[C@H](C)NC(=O)[C@H](C)NC(=O)[C@@H](N)Cc1ccc(O)cc1)[C@@H](C)O)[C@@H](C)O)C(=O)N[C@@H](CO)C(=O)N[C@@H](C)C(=O)NCC(=O)N[C@H](C(=O)NCCOCCOCCOCCOCCOCCOCCOCCOCCOCCOCCOCCOCCC(=O)N[C@@H](CS)C(N)=O)[C@@H](C)O	MCF7 breast cancer	cell binding, phage binding, measured: output/input phage		10 min, 37 °C	baseline: control phage	selectivity ratio	2.6 ± 2.3
CNC(=S)N/N=C/c1ccc(OCc2ccccc2)cc1	IMR-32	measured: GPX3		50 µg/mL, 24 h	higher = more activity	glutathione peroxidase activity (OD450)	0.01 a.u.
O=C(O)c1ccc(-c2nc(-c3ccccc3Cl)c3sccn23)cc1	HEL	flow cytometry		concentration not given	baseline: cells	S phase cells	26.7% and 25.9% and 27%
CC1CCC2C(C)C(OC(=O)CCC(=O)N3CCC(Nc4ccc(S(=O)(=O)NC(=O)c5ccc(N6CCN(CC7=C(c8ccc(Cl)cc8)CC(C)(C)CC7)CC6)cc5Oc5cnc6[nH]ccc6c5)cc4[N+](=O)[O-])CC3)OC3OC4(C)CCC1C32OO4 (centres unmarked)	THP-1	annexin V/PI flow cytometry, measured: annexin V-/PI-		3.2 µM, 24 h		viable cells	6.4%
CC(C)C12OC1C1OC13C1(C)CCC4=C(COC4=O)C1CC1OC13C2OC(=O)CCC(=O)OC1OC(CO)C(O)C(O)C1O (centres unmarked)	CFPAC-1	cell growth or viability, XTT		47 h		IC50	0.51 µM
CCCCCCCCCCCC(=O)N[C@@H](CCCNC(=N)N)C(=O)N[C@@H](Cc1c[nH]c2ccccc12)C(=O)N[C@@H](CCCCN)C(=O)N[C@H](C(=O)N[C@@H](Cc1ccccc1)C(=O)N[C@@H](CCCCN)C(=O)N[C@@H](CCCCN)C(=O)N[C@H](C(=O)N[C@@H](CCC(=O)O)C(=O)N[C@@H](CCCCN)C(=O)N[C@H](C(=O)NCC(=O)N[C@@H](CCC(N)=O)C(=O)N[C@@H](CC(N)=O)C(=O)N[C@H](C(=O)N[C@@H](CCCNC(=N)N)C(=O)N[C@@H](CC(=O)O)C(=O)NCC(=O)N[C@H](C(=O)N[C@H](C(=O)N[C@@H](CCCCN)C(=O)N[C@@H](C)C(=O)NCC(=O)N1CCC[C@H]1C(=O)N[C@@H](C)C(=O)N[C@H](C(=O)N[C@@H](C)C(=O)N[C@H](C(=O)N[C@H](C(=O)NCC(=O)N[C@@H](CCC(N)=O)C(=O)N[C@@H](C)C(=O)N[C@@H](C)C(=O)N[C@H](C(=O)N[C@H](C(N)=O)[C@@H](C)CC)[C@@H](C)O)C(C)C)C(C)C)C(C)C)C(C)C)[C@@H](C)CC)[C@@H](C)CC)C(C)C)[C@@H](C)CC)[C@@H](C)CC	MX1	trypan blue exclusion		6 µM, 24 h		dead cells	> 80%
O=C(C[Se]C(=O)c1cccnc1Nc1cccc(C(F)(F)F)c1)Nc1cccc(C(F)(F)F)c1	NCI60 leukaemia subpanel	NCI60 five-dose screen				CC50	10.2 µM
CC(C)CC(O)(CC(C)C)c1cn(C(=O)N2CCCC2)nn1	mouse T-cells	SILAC proteomics, measured: FDX1		1 nM, 6 h, unit not given	baseline: DMSO	protein level	1.01
O=C(C[Se]C(=O)c1cccs1)Nc1cccc(C(F)(F)F)c1	NCI60 leukaemia subpanel	NCI60 five-dose screen				mean TGI	4.49 µM
Cc1cc(Oc2nc(N3CC[C@@H](c4ccncc4)C3)ncc2F)[nH]n1	Calu-6	cell proliferation	lung cancer			IC50	93.3 µM
CSCC[C@H](NC(=O)[C@H](CCC(=O)O)NC(=O)[C@H](CS)NC(=O)[C@H](Cc1ccccc1)NC(=O)[C@H](CC(N)=O)NC(=O)[C@@H]1CCCN1C(=O)[C@@H]1CCCN1C(=O)[C@H](CC(N)=O)NC(=O)[C@H](CC(C)C)NC(=O)[C@H](CCSC)NC(=O)[C@H](CC(C)C)NC(=O)[C@H](CS)NC(=O)[C@H](CCC(N)=O)NC(=O)CNC(=O)[C@H](Cc1ccc(O)cc1)NC(=O)[C@@H](NC(=O)[C@@H](NC(=O)[C@@H]1CCCN1C(=O)[C@@H](N)CS)C(C)C)[C@@H](C)O)C(=O)N[C@@H](CC(=O)O)C(=O)NCC(=O)N[C@@H](CCC(N)=O)C(=O)N[C@@H](CS)C(=O)N[C@@H](CCCCN)C(=O)O	RAW264.7	Western blot, measured: NF-κB over β-actin		0.1 and 1 µg/mL, added: LPS		NF-κB level	decreased
N[C@H](C(=O)N1CCCC1)C1CCN(c2nccc3c(-c4ncc(Cl)cc4Cl)cccc23)CC1	human neutrophils	protein citrullination, inhibitor, flow cytometry, measured: citrullinated proteins		31.6 nM, added: ionomycin		inhibition	10.4% and 10.3% and 18.6% and 3.55%
O=C(C[Se]C(=O)c1ccccc1)Nc1cccc(C(F)(F)F)c1	NCI60 melanoma subpanel	cytotoxicity, inhibitor		five-dose		CC50	22.9 µM
CC(C)(C)C(=O)OCOP(=O)(OCOC(=O)C(C)(C)C)C1CCCN(O)C1=O (centres unmarked)	OVCAR-3					log GI50	-6.25 log M
